{"data": "Measured values from different studies", "note": "Each numbered part is a random draw from the data of one study; scales do not carry over between parts.", "UniProt P10721, sequence (whole entry, unmodified, looked up)": "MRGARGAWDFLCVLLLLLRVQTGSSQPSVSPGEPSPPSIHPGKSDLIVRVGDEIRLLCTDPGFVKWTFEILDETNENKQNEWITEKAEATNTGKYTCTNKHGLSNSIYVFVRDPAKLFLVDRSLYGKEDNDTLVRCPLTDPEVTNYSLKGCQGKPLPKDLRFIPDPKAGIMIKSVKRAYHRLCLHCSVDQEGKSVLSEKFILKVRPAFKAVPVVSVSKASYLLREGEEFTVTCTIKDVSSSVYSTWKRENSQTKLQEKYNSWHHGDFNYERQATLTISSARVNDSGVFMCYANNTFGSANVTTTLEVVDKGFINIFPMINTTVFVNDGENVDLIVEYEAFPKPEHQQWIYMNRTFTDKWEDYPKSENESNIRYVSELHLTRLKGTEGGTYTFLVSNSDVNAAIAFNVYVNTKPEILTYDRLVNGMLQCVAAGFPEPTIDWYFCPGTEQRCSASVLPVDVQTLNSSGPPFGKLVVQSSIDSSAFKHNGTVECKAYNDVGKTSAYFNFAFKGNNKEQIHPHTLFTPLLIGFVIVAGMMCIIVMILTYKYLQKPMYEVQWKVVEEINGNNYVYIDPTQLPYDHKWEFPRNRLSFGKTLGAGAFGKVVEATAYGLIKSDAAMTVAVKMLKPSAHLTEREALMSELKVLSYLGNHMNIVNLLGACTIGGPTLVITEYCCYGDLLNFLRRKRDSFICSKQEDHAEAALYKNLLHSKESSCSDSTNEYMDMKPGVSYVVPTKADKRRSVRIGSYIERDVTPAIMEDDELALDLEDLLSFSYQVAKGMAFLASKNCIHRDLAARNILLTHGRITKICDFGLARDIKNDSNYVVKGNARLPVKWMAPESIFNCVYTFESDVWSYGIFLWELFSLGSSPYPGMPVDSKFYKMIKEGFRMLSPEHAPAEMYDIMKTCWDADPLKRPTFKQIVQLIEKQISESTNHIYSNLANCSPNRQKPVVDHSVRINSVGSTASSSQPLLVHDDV", "UniProt P27037, sequence (whole entry, looked up)": "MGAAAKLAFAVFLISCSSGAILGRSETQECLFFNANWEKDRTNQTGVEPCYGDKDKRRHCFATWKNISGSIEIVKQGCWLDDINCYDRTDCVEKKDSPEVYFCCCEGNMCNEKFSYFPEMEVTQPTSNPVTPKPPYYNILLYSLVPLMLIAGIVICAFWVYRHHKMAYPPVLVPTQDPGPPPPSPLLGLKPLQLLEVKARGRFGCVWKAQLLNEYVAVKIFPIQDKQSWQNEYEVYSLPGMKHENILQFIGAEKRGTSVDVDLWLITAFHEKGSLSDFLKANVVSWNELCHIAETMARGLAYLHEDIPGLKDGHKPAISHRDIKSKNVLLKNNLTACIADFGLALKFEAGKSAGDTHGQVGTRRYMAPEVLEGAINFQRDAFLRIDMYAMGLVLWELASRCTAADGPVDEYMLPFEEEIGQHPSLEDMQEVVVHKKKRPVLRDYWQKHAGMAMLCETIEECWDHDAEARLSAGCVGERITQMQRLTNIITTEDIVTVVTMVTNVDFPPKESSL", "UniProt Q9BYP7, sequence (whole entry, looked up)": "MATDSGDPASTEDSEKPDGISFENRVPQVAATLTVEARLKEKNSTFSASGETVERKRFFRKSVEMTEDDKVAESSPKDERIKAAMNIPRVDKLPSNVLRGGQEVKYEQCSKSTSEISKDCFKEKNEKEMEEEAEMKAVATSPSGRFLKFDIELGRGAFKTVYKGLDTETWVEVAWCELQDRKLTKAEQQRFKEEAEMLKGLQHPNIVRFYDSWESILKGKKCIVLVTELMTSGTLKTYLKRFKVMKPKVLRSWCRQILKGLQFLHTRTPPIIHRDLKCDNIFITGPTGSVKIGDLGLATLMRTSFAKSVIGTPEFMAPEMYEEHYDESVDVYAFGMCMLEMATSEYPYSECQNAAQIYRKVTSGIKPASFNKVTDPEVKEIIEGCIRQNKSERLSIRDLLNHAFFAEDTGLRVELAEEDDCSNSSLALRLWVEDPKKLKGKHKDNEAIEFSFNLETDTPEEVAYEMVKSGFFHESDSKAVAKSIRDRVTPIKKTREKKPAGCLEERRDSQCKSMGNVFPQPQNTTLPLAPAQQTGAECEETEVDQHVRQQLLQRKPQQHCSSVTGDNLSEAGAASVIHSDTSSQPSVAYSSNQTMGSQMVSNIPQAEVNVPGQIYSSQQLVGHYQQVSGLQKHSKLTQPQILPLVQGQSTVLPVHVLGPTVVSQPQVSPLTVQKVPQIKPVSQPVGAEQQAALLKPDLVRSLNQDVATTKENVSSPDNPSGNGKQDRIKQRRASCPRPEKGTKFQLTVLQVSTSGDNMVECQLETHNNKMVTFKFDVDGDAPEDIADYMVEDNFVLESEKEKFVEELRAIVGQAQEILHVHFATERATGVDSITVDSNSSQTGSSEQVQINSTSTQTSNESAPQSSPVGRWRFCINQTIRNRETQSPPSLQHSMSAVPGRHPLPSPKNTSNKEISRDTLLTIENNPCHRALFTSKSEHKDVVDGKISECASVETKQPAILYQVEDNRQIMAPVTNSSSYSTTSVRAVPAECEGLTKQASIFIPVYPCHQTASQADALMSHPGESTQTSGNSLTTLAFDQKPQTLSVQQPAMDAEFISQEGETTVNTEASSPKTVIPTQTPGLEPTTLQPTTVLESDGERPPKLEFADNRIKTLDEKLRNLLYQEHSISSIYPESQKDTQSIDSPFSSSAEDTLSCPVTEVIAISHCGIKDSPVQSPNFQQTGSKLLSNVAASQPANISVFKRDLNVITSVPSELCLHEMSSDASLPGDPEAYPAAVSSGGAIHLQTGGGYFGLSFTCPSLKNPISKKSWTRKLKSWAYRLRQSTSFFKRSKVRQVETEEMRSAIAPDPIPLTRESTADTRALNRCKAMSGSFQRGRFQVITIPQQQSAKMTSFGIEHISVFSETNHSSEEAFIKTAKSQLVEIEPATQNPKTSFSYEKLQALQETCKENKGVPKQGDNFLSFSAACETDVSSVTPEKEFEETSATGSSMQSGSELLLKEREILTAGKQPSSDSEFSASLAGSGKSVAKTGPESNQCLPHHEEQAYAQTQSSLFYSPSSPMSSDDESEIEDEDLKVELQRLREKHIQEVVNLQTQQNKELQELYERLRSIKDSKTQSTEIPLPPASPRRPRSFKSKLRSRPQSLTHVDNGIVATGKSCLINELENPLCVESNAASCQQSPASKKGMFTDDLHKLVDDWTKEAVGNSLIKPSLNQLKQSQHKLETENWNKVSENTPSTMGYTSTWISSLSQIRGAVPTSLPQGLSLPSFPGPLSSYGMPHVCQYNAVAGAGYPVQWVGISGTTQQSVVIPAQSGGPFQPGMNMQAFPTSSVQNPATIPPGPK", "UniProt O94804, sequence (whole entry, looked up)": "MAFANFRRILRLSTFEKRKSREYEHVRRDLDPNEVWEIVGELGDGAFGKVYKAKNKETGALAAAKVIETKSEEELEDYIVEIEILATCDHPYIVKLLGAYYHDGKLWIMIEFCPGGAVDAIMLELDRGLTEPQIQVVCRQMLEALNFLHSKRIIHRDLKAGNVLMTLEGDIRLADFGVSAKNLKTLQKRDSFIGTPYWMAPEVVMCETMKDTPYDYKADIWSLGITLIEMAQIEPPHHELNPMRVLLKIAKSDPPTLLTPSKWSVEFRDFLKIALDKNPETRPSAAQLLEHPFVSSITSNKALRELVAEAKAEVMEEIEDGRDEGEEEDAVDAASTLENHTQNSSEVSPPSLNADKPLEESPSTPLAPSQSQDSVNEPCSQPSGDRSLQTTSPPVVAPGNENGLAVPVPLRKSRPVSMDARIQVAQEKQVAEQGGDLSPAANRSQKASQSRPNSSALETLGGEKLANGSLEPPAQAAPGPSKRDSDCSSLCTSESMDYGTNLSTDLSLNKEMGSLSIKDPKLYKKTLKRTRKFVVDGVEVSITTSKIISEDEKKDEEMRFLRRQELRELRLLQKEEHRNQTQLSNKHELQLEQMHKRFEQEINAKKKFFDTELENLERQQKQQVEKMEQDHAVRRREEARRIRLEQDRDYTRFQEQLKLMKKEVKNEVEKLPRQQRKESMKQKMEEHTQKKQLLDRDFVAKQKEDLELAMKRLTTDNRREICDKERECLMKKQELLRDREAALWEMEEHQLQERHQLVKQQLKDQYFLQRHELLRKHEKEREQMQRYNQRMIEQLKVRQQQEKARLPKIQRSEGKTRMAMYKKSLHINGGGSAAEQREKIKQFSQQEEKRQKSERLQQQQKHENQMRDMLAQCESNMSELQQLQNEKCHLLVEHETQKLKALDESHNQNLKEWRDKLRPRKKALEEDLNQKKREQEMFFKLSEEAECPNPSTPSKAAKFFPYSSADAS"}
{"data": "Study 1", "cell line": "HuT78", "concentration": "2 µM", "time": "48 h", "reference": "untreated"}
{"Compound": "Nc1ncnc2c1c(-c1cnc3[nH]ccc3c1)nn2C1CCCC1", "viability [%]": 40}
{"Compound": "COc1ccc(Cl)cc1NC(=O)Nc1cc(C)nc2ccccc12", "viability [%]": 110}
{"Compound": "C[C@H](Nc1ncnc2nc[nH]c12)c1cc2cccc(Cl)c2c(=O)n1-c1ccccc1", "viability [%]": 90.1}
{"data": "Study 2", "organism": "Sarcocystis neurona", "effect on": "parasite growth", "concentration": "10 µM", "time": "96 h", "setting": "second screen", "reference": "untreated"}
{"SMILES": "CC[C@H](C)C(=O)O[C@H]1C[C@@H](C)C=C2C=C[C@H](C)[C@H](CC[C@@H]3C[C@@H](O)CC(=O)O3)[C@H]21", "log2 fold change": 0.48}
{"SMILES": "CC[C@]1(O)C[C@@H]2CN(CCc3c([nH]c4ccccc34)[C@@](C(=O)OC)(c3cc4c(cc3OC)N(C)[C@H]3[C@@](O)(C(N)=O)[C@H](O)[C@]5(CC)C=CCN6CC[C@]43[C@@H]65)C2)C1", "log2 fold change": 0.04}
{"SMILES": "CC(=O)[C@H]1CC[C@H]2[C@@H]3C[C@H](C)C4=CC(=O)CC[C@]4(C)[C@H]3[C@@H](O)C[C@]12C", "log2 fold change": 0.0378}
{"SMILES": "CCc1nn(CCCN2CCN(c3cccc(Cl)c3)CC2)c(=O)n1CCOc1ccccc1", "log2 fold change": -1.28}
{"data": "Study 3", "species": "human", "matrix": "microsomes or S9", "concentration": "2 µM", "time": "0.5 h"}
{"SMILES": "CCc1cc2c3c([nH]c2cc1S(=O)(=O)N(Cc1ccccc1)C(C)C)CCCC3=O", "remaining compound": "> 99%"}
{"SMILES": "Cc1csc(C2=C(N)N(CC(C)C)CC2=O)n1", "remaining compound": "78.7%"}
{"SMILES": "c1ccc(-n2ncc3c2N=C(N2CCC(n4ccnc4)CC2)NC3)cc1", "remaining compound": "89.6%"}
{"data": "Study 4", "SMILES": "CS(=O)(=O)N1CCCC(NC(=O)[C@H](CCC2CCCCC2)NC(=O)c2ccc(CNc3ncnc4c3nnn4-c3ccccc3)cc2)C1 (stereo partly shown)", "effect on": "cell-free assay", "method": "competition with immobilised ligand", "concentration": "0.1 µM"}
{"target": "Activin receptor type-2A (ACVR2A, Homo sapiens, UniProt P27037)", "remaining binding [%]": 68}
{"target": "Mast/stem cell growth factor receptor Kit (KIT, Homo sapiens, UniProt P10721, V559D)", "remaining binding [%]": 93}
{"target": "Serine/threonine-protein kinase WNK3 (WNK3, Homo sapiens, UniProt Q9BYP7)", "remaining binding [%]": 85}
{"target": "Serine/threonine-protein kinase 10 (STK10, Homo sapiens, UniProt O94804)", "remaining binding [%]": 100}
{"data": "Study 5", "target": "Ribosomal protein S6 kinase alpha-4 (RPS6KA4, Homo sapiens, UniProt O75676)", "effect on": "enzyme activity", "action": "inhibitor", "concentration": "0.5 µM", "reference": "control", "UniProt O75676, sequence (whole entry, looked up)": "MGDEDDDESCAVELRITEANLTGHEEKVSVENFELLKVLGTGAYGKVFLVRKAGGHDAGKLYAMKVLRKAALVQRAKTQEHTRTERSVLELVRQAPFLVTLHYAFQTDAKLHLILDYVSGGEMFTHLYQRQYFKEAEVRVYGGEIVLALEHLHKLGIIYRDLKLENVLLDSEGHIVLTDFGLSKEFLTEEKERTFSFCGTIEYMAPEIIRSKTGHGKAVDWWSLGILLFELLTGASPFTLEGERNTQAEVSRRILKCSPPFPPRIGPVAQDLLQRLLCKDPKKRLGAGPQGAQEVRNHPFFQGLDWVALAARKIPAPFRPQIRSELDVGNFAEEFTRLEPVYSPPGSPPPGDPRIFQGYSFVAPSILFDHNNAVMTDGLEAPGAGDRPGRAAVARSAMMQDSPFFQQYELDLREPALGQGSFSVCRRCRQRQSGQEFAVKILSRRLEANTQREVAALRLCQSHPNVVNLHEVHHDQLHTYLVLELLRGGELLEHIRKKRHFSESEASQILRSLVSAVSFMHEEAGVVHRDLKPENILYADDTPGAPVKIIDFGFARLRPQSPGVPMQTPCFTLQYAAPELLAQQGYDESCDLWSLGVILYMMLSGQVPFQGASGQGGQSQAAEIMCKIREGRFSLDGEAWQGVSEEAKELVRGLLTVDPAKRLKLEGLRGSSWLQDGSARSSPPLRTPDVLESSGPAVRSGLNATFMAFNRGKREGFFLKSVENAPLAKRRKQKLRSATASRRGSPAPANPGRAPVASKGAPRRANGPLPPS"}
{"Structure (SMILES)": "COc1cc2ncnc(Nc3ccc(Oc4ccccc4)cc3)c2cc1OC", "remaining activity [%]": 94.4}
{"Structure (SMILES)": "NCCNc1ncc(C(N)=O)c(Nc2cccc(C(F)(F)F)c2)n1", "remaining activity [%]": 88.1}
{"Structure (SMILES)": "Cc1nc(-c2ccccc2)c(-c2ccncc2)o1", "remaining activity [%]": 93.7}
{"Structure (SMILES)": "Oc1ccc(-c2nc(-c3ccncc3)c(-c3ccc(F)cc3)[nH]2)cc1", "remaining activity [%]": 95.9}
{"Structure (SMILES)": "O=C(CCCc1ccc(-c2ccccc2F)cc1)Nc1ccc(O)cc1", "remaining activity [%]": 103}
{"Structure (SMILES)": "COc1cc2ncnc(Nc3ccc(F)c(Cl)c3)c2cc1OCCCN1CCOCC1", "remaining activity [%]": 104}
{"Structure (SMILES)": "O=c1c2ccccc2[nH]c(=S)n1CCN1CCC(=C(c2ccc(F)cc2)c2ccc(F)cc2)CC1", "remaining activity [%]": 103}
{"Structure (SMILES)": "O=S(=O)(c1cccc2cnccc12)N1CCCNCC1", "remaining activity [%]": 81.8}
{"Structure (SMILES)": "Nc1[nH]nc2nc3ccccc3nc12", "remaining activity [%]": 79}
{"Structure (SMILES)": "O=C(O)c1ccc2c3c1cccc3c(=O)n1c3ccccc3nc21", "remaining activity [%]": 110}
{"Structure (SMILES)": "COc1cc2nccc(Oc3ccc(NC(=S)NC(=O)c4ccccc4C)cc3)c2cc1OC", "remaining activity [%]": 99.7}
{"Structure (SMILES)": "CO[C@H]1C[C@@H]2CC[C@@H](C)[C@@](O)(O2)C(=O)C(=O)N2CCCC[C@H]2C(=O)O[C@H]([C@H](C)C[C@@H]2CC[C@@H](O)[C@H](OC)C2)CC(=O)[C@H](C)/C=C(\\C)[C@@H](O)[C@@H](OC)C(=O)[C@H](C)C[C@H](C)/C=C/C=C/C=C/1C", "remaining activity [%]": 91.8}
{"Structure (SMILES)": "OCC(O)CCON=C1C(c2c(O)[nH]c3ccccc23)=Nc2ccccc21 (stereo not shown)", "remaining activity [%]": 21.7}
{"Structure (SMILES)": "COc1ccc(C(=O)Nc2sc3c(c2C(N)=O)CCCC3)cc1OC", "remaining activity [%]": 102}
{"note": "Excerpt of the above (study 3):"}
{"SMILES": "c1ccc(-n2ncc3c2N=C(N2CCC(n4ccnc4)CC2)NC3)cc1", "remaining compound": "89.6%"}
